Experimental data from different studies.
Each line is one published result; not all experiments were run side by side.
Target: Calcium/calmodulin-dependent protein kinase type II subunit alpha (CAMK2A, Homo sapiens, UniProt Q9UQM7)

SMILES | test | setting | how to read | quantity | value
Nc1ncc(-c2cc(-c3cnn(CC(F)(F)F)c3)ncc2F)nc1C(=O)NC1CNCC(F)C1 (stereo not shown) | enzyme activity | 1 µM | baseline: DMSO control | remaining activity | 97.9%
CCN1CCN(Cc2ccc(C(=O)Nc3ccc(C)c(NCc4cnc5[nH]ccc5c4OC)c3)cc2C(F)(F)F)CC1 | binding, competition with immobilised ligand | 1 µM | – | remaining binding | 83%
Cc1cccc(O[C@H]2CCC[C@@H](C(C)CNCc3ccncc3)C2)c1 (relative stereo) | enzyme activity, inhibitor | 1 µM | – | inhibition | 4%
Cc1[nH]nc2c1N=C(c1ccccc1Cl)c1cnc(N3CCOCC3)cc1N2 | enzyme activity, inhibitor | 0.5 µM | – | inhibition | 7.2%
CNC(=O)C[C@H](Cc1ccc(C#N)cc1)NC(=O)c1cc(-c2ccc(CN[C@H](C)c3ccc(C)cc3)o2)ccc1Cl | enzyme activity, inhibitor | 1 µM | – | activity vs control | 98%
CN1CC[C@@H](COc2cnc(C#N)cc2-c2ccn3nc(NC(=O)C4CC4)cc3c2)C1 | enzyme activity, inhibitor | 1 µM | – | inhibition | 7%
Cc1ccc(-c2c(/C=C(\C#N)C(=O)NC(C)C)n(CCCO)c3ncnc(N)c23)cc1 | cell-free assay, competition with immobilised ligand | 1 µM | – | remaining binding | 87%
CCn1cc(C(=O)O)c(=O)c2c(N)c(F)c(NC3CCCCC3)cc21 | kinase activity | 0.1 µM, together with: ATP at Km | – | inhibition | 13.3%
Cc1cnc2nc1Nc1cccc(c1)COC/C=C/COCc1cc(ccc1OCCN1CCOCC1)N2 | binding | 0.1 µM | – | remaining binding | 98%
NC(=O)[C@@H](O)C[C@H]1CCc2sc3ncnc(O[C@H]4CC[C@H](N5CCOCC5)CC4)c3c21 | enzyme activity, inhibitor | 10 µM | – | inhibition | 58%
COc1cc(Nc2nccc(-c3cnn4nc(OC)ccc34)n2)cc(C(F)(F)F)c1 | binding, competition with immobilised ligand | 1 µM | – | remaining binding | 100%
C=CC(=O)Nc1cccc(-c2cnc3[nH]cc(C(=O)NC(C)(C)C)c3n2)c1 | enzyme activity, inhibitor | 0.1 µM | – | inhibition | 0%
C=CC(=O)N1CCc2ccc(-n3c(=O)ccc4cnc5ccc(-c6cnn(C)c6)cc5c43)cc21 | KINOMEscan | 1 µM | baseline: DMSO control | remaining binding | 95%

A few entries again:
SMILES | test | setting | how to read | quantity | value
Cc1cnc2nc1Nc1cccc(c1)COC/C=C/COCc1cc(ccc1OCCN1CCOCC1)N2 | binding | 0.1 µM | – | remaining binding | 98%
CN1CC[C@@H](COc2cnc(C#N)cc2-c2ccn3nc(NC(=O)C4CC4)cc3c2)C1 | enzyme activity, inhibitor | 1 µM | – | inhibition | 7%
